Assay results pooled from the literature.
Numbered parts are unrelated; each lists some results of a single study. Positions count from the first letter of the parent shown.

Study 1
Target: ABI1, truncated, D143A, DHFR fusion (Arabidopsis thaliana)
Method: DHFR PCA, deep sequencing
Sample: yeast
Notes: methotrexate growth selection, single substitutions
Together with: (+)-ABA 200 µM
Baseline: wild-type fitted maximum
Direction: higher = stronger binding
Parent: PYL1, truncated, DHFR fusion (Arabidopsis thaliana); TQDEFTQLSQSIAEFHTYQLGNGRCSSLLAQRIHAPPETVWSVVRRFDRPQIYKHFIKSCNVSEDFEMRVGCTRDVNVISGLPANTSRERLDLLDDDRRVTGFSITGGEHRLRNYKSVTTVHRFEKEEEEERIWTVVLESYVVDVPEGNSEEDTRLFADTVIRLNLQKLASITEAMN
| Substitution | relative binding score [%] |
| --- | --- |
| E125M | 90.3 |
| W41P | 1.57 |
| R45K | 88.9 |
| Q31V | 71.7 |
| R69D | 92.1 |
| D95N | 102 |
| G107W | 39.9 |
| E128V | 103 |
| V76I | 107 |
| S87A | 89.4 |
| I33H | 14.4 |
| D48N | 87.2 |
| S80T | 98.2 |
| F56H | 47.2 |
| N149V | 49.2 |
| T17Q | 94.2 |
| P36N | 87.6 |
| C60T | 89.4 |
| G107F | 31.2 |
| R88V | 105 |
| R88F | 102 |
| T17G | 74.8 |
| Y115A | 4.39 |

Study 2
Target: RING finger protein unkempt homolog, zinc fingers 1-6, GST-SBP tag (UNK, Homo sapiens, UniProt Q9C0B0, residues 30-357)
UniProt Q9C0B0, sequence (30-357, looked up): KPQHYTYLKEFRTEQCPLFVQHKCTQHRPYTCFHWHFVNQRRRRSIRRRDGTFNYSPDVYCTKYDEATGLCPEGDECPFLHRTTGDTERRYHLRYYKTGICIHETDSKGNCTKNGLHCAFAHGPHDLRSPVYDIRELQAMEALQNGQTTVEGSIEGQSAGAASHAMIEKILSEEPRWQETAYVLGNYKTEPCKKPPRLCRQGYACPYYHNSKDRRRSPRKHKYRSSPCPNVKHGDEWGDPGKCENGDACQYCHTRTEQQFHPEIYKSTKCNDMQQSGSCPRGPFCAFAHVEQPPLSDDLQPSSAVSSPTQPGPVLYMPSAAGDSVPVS
Method: RNA Bind-n-Seq
Form: RNA
Sample: in vitro
Tested at: not given
Notes: RNA with constant flanks, human and mouse sites, ends assumed
Baseline: input RNA pool
Direction: higher = stronger binding
All sequences stand within: GGGAGUUCUACAGUCCGACGAUC … CAACAGAGGAUUGAGCAUCA
| Strand | bound/input enrichment |
| --- | --- |
| UCCUGGCCGCGCCCAGCCCCCUCUCGCCAUGCCGCCCGCGGGGCCCCGCGGGACCGCGCCGCUCGCAGCCGUCGUCCUGCUGGUGCUUGGGGCUCCUCUGGCGCUGGCGAGUGAGGACUG | 0.44 ratio |
| AGUUCUGCAAGAAUGGUUACUACAGUACCCCAUGUGUUUUCAAAACUGUUAGAAAUGCUGAGUGUUUCCAGUUCCACUCACUUCACCAGGAUGCGUCGCCGUUUGAUGGCUAUUGCAGAU | 0.291 ratio |
| GUUGGGAGACACAAAGGGGAAGUCAGUUUCCCAGGCGGUAAGUGUGAUCCCGACGACCAAGAUGUAAUACAUACGGCCCUUCGGGAGACUCAGGAGGAGCUGGGCCUAGAGGUGCCCAAG | 0.185 ratio |
| AAGAGAGAAAGGAAGAAGAAGACAGGAAGCAAGAGUGUGGACGCAGCAAAACUUGGUGCUUCUGAAAAGAACGAAAGAUUGCUUAUAAAACCACAAUGGCAUGAUUUGCUUCCAUGCAAA | 0.29 ratio |
| ACAUUUUCCAUCUUCUAUAACAACACUCUGUUCCUGGUCGUGGUCAUUGUUGCUUCCUUCUUCAUAUUGAAGAACUUCAACCCCACAGUGUAUCCUUUUCAAGGAACUACAUAUUGUCCA | 0.359 ratio |
| UGAGACUGUAGUUGGGUGUCCCGGGUGCCCAUGGACUGCUUGAUGCUGCUUAACUCUUCAUUUAGAUAACUUUCUAGUGACAGCUUCUUCCAGUGGUGACAAAAUAGUGGUGUCAAGUUG | 1.13 ratio |
| GAUGGGAAAUGUGGACUUUACAAGUAUAUGUUAUAUAUACUUGCAAUGUGACAUGGUUCUGUAGAUCAUUUUAUAAUAAUAAAUAUUUUAAUUUAUCAUAACAUAUAAAAGAAACCUUUG | 7.68 ratio |
| UGUCUGGCCCAGGUGCUGCAGAAGGAUGUGGGAAAGCGGCUGCAGGUUGGCCAGGAACUCAUAGACUAUUUCUCAGACAGACAGAAGUCUGCUGACCUUGAGCACGACCAGACCCUGUUG | 0.647 ratio |

Study 3
Target: Ras GTPase-activating protein-binding protein 1, RRM domain (G3BP1, Homo sapiens, UniProt Q13283)
UniProt Q13283, sequence (whole entry, looked up): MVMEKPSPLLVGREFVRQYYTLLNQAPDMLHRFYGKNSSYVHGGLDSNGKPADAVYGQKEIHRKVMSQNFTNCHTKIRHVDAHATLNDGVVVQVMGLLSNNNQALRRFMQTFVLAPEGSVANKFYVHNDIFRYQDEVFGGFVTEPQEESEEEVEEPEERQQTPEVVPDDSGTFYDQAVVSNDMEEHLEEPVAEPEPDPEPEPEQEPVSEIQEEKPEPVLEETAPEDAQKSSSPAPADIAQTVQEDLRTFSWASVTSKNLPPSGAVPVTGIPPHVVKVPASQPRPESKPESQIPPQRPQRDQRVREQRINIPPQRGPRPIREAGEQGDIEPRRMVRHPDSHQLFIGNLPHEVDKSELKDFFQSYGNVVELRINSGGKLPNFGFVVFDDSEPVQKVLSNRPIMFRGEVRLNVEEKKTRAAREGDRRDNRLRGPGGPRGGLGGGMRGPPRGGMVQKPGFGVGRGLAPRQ
Method: RNA Bind-n-Seq
Form: RNA
Sample: in vitro
Tested at: 1 µM
Notes: whole 134-nt RNA, ends assumed
Together with: 150 mM KCl
Baseline: input library
Direction: higher = stronger binding
All sequences stand within: GGGAGUUCUACAGUCCGACGAUC … UGGAAUUCUCGGGUGUCAAGG
| Strand | log2 enrichment |
| --- | --- |
| GUCCUGUGCUACACAUCGUAUGUACCGAAUCGGAAAAAAAGGUUUUUUUGGUUUUUGGAAAGUAUUAUGUUACGCCGUUCGGAUCUGCAC | -0.426 |
| CAAGUCCUGUGCUACACAUCGUAUGUACCGAAUCGGAAAAGGGAAAAGGGAAAAGGAAAGUAUUAUGUUACGCCGUUCGGAUCUGCACUU | -0.147 |
| AGUCCUGUGCUACACAUCGUAUGUACCGAAUCAAAUUUUUAAAUUUAAACCCCCAAAAAAGUAUUAUGUUACGCCGUUCGGAUCUGCACU | -1.05 |
| GACUCUGAAGAAGAAGCUAUGGAGACUACACCAGCCAAAGGAAAGAAAGCUGCAAAAGUUGUUCCUGUGAAAGCCAAGAACGUGGCUGAG | -0.0751 |
| AAGUCCUGUGCUACACAUCGUAUGUACCGAAUCGGGAAAAAAAGGGAGGGUUUGGGAAAGUAUUAUGUUACGCCGUUCGGAUCUGCACUU | 0.439 |
| AGUCCUGUGCUACACAUCGUAUGUACCGAAUCAAACCCCCAAACCCAAACCCCCAAAAAAGUAUUAUGUUACGCCGUUCGGAUCUGCACU | -0.21 |
| ACCAUGCAGGUGGGCAUCUUUGGGAAGUGGGGCAAGGGGGGGAUAGGGAGGGGGGUAACUCUUUGGGAACAGGUGGUCCCAGGUCGUUUC | 1.05 |
| UCAAGUCCUGUGCUACACAUCGUAUGUACCGAAUCGGUUUGGUUUGGUUUGGGGAAAGUAUUAUGUUACGCCGUUCGGAUCUGCACUUCC | -0.292 |
| AAGUCCUGUGCUACACAUCGUAUGUACCGAAUCGGGUGGGUUUUUUUGGGUUUGGGAAAGUAUUAUGUUACGCCGUUCGGAUCUGCACUU | 0.463 |

Study 4
Target: Histone acetyltransferase KAT6A, winged helix 2, GST fusion (KAT6A, Homo sapiens, UniProt Q92794, residues 85-181)
Method: protein binding microarray
Form: double-stranded DNA, one strand shown
Sample: in vitro
Tested at: not given
Notes: 8-mer, flanks averaged, mean of 2 arrays, mostly near background
Baseline: not given
Direction: higher = stronger binding
Residues (chain): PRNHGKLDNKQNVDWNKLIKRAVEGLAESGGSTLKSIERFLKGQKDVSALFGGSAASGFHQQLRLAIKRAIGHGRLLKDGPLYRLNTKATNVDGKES
| Strand | E-score |
| --- | --- |
| GAGACCGC | 0.0322 |
| CCATACAC | -0.0986 |
| CCGAGTAA | -0.00197 |
| TCAGACAA | -0.163 |
| CCATCTAA | -0.0232 |
| GAACATGA | -0.0871 |
| AAGCCCCT | -0.0214 |
| CCAAGACA | 0.0461 |
| GCATCCCA | -0.0914 |
| AAAAACAG | -0.0347 |
| AACAGAAT | -0.0929 |
| CTCCAGTC | -0.0254 |
| AGATACTG | 0.0237 |
| AGTTTAAG | 0.0464 |
| TGAAGGAA | -0.0427 |
| CTCCGAGA | 0.0867 |
| GATCTTGC | 0.186 |
| CGAAGTGA | 0.125 |
| CCCTGAAA | 0.00975 |
| ACACGTCG | -0.122 |
| ACGGCACG | 0.154 |
| AAGCACTG | 0.136 |
| CTATGGAC | -0.163 |
| CGCTATGC | 0.00625 |
| CAGAGATC | 0.139 |

Study 5
Target: Sal-like protein 4, full length isoform B (SALL4, Homo sapiens, UniProt Q9UJQ4-2, residues 1-616)
Method: universal PBM
Form: double-stranded DNA, one strand shown
Sample: in vitro
Tested at: not given
Notes: 8-mer, flanks averaged, mean of replicates
Direction: higher = stronger binding
Target sequence (chain): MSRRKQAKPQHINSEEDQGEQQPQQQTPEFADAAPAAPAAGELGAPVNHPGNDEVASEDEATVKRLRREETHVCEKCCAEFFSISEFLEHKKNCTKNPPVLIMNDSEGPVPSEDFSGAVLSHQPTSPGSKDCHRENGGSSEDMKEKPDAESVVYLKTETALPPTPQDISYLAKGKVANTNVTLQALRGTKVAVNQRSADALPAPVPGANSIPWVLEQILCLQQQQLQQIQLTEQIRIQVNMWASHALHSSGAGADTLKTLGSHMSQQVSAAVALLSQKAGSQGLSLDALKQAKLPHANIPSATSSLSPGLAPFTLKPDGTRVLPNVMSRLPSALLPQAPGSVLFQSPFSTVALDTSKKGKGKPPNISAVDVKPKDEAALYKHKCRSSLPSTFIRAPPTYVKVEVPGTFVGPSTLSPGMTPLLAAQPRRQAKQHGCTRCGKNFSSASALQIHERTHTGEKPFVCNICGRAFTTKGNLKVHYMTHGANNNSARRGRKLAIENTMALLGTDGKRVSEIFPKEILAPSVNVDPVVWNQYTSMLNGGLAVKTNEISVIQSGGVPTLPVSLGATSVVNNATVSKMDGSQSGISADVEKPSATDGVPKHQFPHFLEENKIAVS
| Strand | E-score |
| --- | --- |
| CACTCCGA | -0.2 |
| GACCGATC | -0.12 |
| CGAACACG | -0.0191 |
| GCACCACA | -0.115 |
| GCTCCTAA | -0.161 |
| GAGCTGAA | -0.124 |
| AATTACCC | 0.00881 |
| GGGAGTGA | 0.0398 |
| GATCAACC | -0.172 |
| ATCTTGTG | 0.0793 |
| CAAAATAA | 0.308 |
| AAAGGTAT | 0.162 |
| ATGGGCGG | -0.181 |
| ATTCTCTA | 0.132 |
| CCGTGGCG | -0.314 |
| AACCTTCC | -0.169 |
